# Results from different studies.
# A part holds a random share of what one study measured.

# Set 1
# Target: Centromere-binding protein 1, full length, N-terminal tag (CBF1, Saccharomyces cerevisiae, UniProt P17106, residues 1-351)
# Chain of UniProt P17106 (whole entry, looked up): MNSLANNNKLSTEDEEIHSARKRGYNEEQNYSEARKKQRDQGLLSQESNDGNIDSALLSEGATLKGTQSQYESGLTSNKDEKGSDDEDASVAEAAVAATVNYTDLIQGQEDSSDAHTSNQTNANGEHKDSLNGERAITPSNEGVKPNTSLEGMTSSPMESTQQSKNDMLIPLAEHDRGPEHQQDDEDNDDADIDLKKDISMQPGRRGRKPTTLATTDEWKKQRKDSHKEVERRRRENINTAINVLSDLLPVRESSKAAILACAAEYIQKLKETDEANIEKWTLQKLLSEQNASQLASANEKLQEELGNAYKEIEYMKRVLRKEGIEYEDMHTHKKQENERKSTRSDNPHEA
# Method: protein-binding microarray
# Molecule type: double-stranded DNA, one strand shown
# Matrix: in vitro
# Tested at: 0.8 µM
# Notes: whole 60-bp probe, no competitor
# Reading: higher = stronger binding
Oligonucleotide,fluorescence intensity [a.u.]
GAAATATTTCTCTGTCACCCGGCCTCTATTTTCTAGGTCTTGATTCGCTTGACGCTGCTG,559
CTATTATATCCCTTTCATATGATTAACAAAACTTTCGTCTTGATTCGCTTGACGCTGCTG,596
CTAATTAATCCTACGTGACTTACACATATGCCATTCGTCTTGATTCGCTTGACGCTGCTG,945
CTAATAGTACTTGTACATCAGACAAGGATGAATTTCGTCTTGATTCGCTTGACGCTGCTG,505
CTAAGTTTTTAGAACCTCGTGGTGAGGAGTGTTTTCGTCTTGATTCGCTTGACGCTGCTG,615
CTAATTCAGGGATGGCTCATCACGAACAGCAAATTCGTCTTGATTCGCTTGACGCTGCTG,582
CTATTATTGAAAGTGAACGTGATCCAGAACCGCTTCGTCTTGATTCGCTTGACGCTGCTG,1750
CTAGCCATTAAAGATCTGGTGGCCCCGACAAAATTCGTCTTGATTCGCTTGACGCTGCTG,489
GAAACAGTTATTTTTCATGTGTTATGTTTTTCATAGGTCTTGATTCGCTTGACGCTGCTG,599
GAAGTACACTTTCATCACGCAGTACGGATTTTTTAGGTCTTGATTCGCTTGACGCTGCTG,524
CTAATAAAAAAATGTAACATCATATCTCAATGTTTCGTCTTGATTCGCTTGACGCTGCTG,519
GAAATTCACAACCATCACCATCGGGATGGTAATTAGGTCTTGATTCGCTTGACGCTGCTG,478
CTAACTAACTAGTGCATCACCACTTGTCTAAATTTCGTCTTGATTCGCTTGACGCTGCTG,522
CTAAAGGACTGCGCAGGTGAGGGTTTTTACGACTTCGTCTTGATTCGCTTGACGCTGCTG,539
TGTACGAAGCTATAGCACATGATTATAGTAGTTAGGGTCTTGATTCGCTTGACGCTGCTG,1250
GAATAGTCATAAGGTGACACAGCGTGGGTGTACTAGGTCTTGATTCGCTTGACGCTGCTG,545
GAAGGGCAATTTCCAAACGTGCAAAGTGTTATCTAGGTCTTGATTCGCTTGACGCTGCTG,550
GAACCTTTATTTCATCGCGTGATTGAGGAGCATTAGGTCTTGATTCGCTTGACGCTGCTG,1550
CTAAAATATCGCAAGCACGTTTTTACTCAGCCCTTCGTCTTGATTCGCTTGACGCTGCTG,693
CTATGAATATACTGCAACGTGCCTATTGAATCCTTCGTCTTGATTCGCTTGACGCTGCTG,749

# Set 2
# Target: Interferon regulatory factor 7, full length, phosphomimetic (IRF7, Homo sapiens, UniProt Q92985, residues 1-503, S101K/S471D/S472D/S475D/S476D/S477D/S483D/S484D/S487D)
# Method: protein-binding microarray
# Molecule type: double-stranded DNA, one strand shown
# Matrix: in vitro
# Tested at: 250 nM
# Notes: 60-bp whole probe
# With: salmon DNA 0.4 mg/ml
# Reference: random background probes
# Reading: higher = stronger binding
# Shared flanks, not repeated: GCCTAGCAC … GTCTTGATTCGCTTGACGCTGCTG
# Residues (chain): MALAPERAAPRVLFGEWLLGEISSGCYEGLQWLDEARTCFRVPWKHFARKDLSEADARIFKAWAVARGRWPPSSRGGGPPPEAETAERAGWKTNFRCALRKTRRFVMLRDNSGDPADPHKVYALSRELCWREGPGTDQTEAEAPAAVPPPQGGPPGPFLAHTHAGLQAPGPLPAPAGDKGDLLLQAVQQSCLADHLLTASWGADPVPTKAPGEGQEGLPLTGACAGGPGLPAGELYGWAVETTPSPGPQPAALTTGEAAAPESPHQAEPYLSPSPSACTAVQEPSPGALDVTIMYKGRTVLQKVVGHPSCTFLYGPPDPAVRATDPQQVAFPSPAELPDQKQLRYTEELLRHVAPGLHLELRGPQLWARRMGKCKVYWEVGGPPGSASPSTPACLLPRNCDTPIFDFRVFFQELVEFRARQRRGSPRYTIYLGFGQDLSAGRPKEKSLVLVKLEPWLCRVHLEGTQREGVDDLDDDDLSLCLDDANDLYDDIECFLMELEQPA
Oligonucleotide,log fluorescence [z-score]
TTAAGTATCGACACTGGGTTAGTGCTA,-0.0521
TTAGGGCTGGACACTGGGTTAGTGCTA,-1.01
TTAGGTCTCGGTTTCGGCTAGTGCTAG,7.54
GACGGACTGGGGACAGGGGACGTGCTA,-0.209
TCACATCTGCAAGATCCAACTGTGCTA,0.0329
GACGGTATCGCCTATCGGGACGTGCTA,-0.388
GACGGTATCCTTCTCATGACGTGCTAG,0.236
TTAGATCTCAGTCTCAATTAGTGCTAG,0.325
GACGGTTTCCTACTGCTGACGTGCTAG,1.55
TCAGCTTTGCAGATAAAACTGTGCTAG,-0.332
GACGGGCTGGGGTTTCGGGACGTGCTA,0.396
GCCGGTTTCGGTATCGGGACGTGCTAG,11
TTAGGTAACGGGTTTCGGTTAGTGCTA,6.26
TTAGGTCTCCTTATCCTTGAGTGCTAG,0.301
TCACCTCTGCTCCTCTTACTGTGCTAG,0.125
GACGGTTCCATTTTCCTGACGTGCTAG,2.16
CTAGGTCTCCTACTGCTTTAGTGCTAG,-0.03
AAAACTCTTTATTTAAGCTCGTGCTAG,0.31
GACTGTTTCCTACTGCTGACGTGCTAG,1.63
TTAGATTTCGGTCTCGATTAGTGCTAG,2.9
TTAGCTTCCGGTTTCGGTTAGTGCTAG,8.14
TCACATATTCTCTTCTTACTGTGCTAG,0.973
TCATGTTTCCTTGTACGACTGTGCTAG,1.59

# Set 3
# Target: Homeobox protein Hox-C11, full length (HOXC11, Homo sapiens, UniProt O43248, residues 1-304)
# Chain of UniProt O43248 (whole entry, looked up): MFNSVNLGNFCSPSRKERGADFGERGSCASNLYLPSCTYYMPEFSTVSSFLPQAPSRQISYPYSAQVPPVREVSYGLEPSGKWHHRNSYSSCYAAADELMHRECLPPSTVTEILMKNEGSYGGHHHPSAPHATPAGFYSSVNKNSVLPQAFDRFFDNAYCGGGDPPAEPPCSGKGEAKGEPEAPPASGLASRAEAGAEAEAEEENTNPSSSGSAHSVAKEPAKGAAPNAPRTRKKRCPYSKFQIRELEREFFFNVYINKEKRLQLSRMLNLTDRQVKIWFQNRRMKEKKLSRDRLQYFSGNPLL
# Method: protein-binding microarray
# Molecule type: hairpin DNA
# Matrix: in vitro
# Tested at: not given
# Notes: whole hairpin DNA, median over replicate spots
# Reference: not given
# Reading: higher = stronger binding
Oligonucleotide,median fluorescence [a.u.]
GAGGCCAGGTCGTAACGGCCTCCTGGCCGTTACGACCTGGCCTCACACTC (5mC at 16 28),11100
GAGGCCAGGTCGTTACAGCCTCCTGGCTGTAACGACCTGGCCTCACACTC,10900
GAGGCCAGTTCGTAAAAGCCTCCTGGCTTTTACGAACTGGCCTCACACTC,8660
GAGGCCAGGCGGTTAAAGCCTCCTGGCTTTAACCGCCTGGCCTCACACTC (5mC at 34),9470
GAGGCCAGGTCGTAAAAGCCTCCTGGCTTTTACGACCTGGCCTCACACTC (5mC at 11),10000
GAGGCCAGGTCCTAAAAGCCTCCTGGCTTTTAGGACCTGGCCTCACACTC,8190
GAGGCCAGGTCGATAAAGCCTCCTGGCTTTATCGACCTGGCCTCACACTC,10100
GAGGCCAGGTCATTAAAGCCTCCTGGCTTTAATGACCTGGCCTCACACTC,9880
GAGGCCAGGTCGTTAAAGCCTCCTGGCTTTAACGACCTGGCCTCACACTC (5mC at 33),10600
GAGGCCAAGTCGTTAAAGCCTCCTGGCTTTAACGACTTGGCCTCACACTC,10200
GAGGCCAGGCGGTAAAAGCCTCCTGGCTTTTACCGCCTGGCCTCACACTC (5mC at 10 34),9300
GAGGCCAGGTCCTTAAAGCCTCCTGGCTTTAAGGACCTGGCCTCACACTC (5mC at 12),8060
GAGGCCAGGTCGGAAAAGCCTCCTGGCTTTTCCGACCTGGCCTCACACTC (5mC at 32),9940
GAGGCCAGGTCGTTGAAGCCTCCTGGCTTCAACGACCTGGCCTCACACTC,10400
GAGGCCAGGTCGCTAAAGCCTCCTGGCTTTAGCGACCTGGCCTCACACTC,10200
GAGGCCAGGTCGTAAATGCCTCCTGGCATTTACGACCTGGCCTCACACTC,11000
GAGGCCAGGTCCGTAAAGCCTCCTGGCTTTACGGACCTGGCCTCACACTC (5mC at 12),9430
GAGGCCAGGTCGTAAAAGCCTCCTGGCTTTTACGACCTGGCCTCACACTC (5mC at 36),11200
GAGGCCTGGTCGTTAAAGCCTCCTGGCTTTAACGACCAGGCCTCACACTC,10200
GAGGCCAGGGCGTAAAAGCCTCCTGGCTTTTACGCCCTGGCCTCACACTC (5mC at 35),10000
GAGGCCCGGTCGTAAAAGCCTCCTGGCTTTTACGACCGGGCCTCACACTC (5mC at 7 37),10700
GAGGCCAGGTCGTTCGAGCCTCCTGGCTCGAACGACCTGGCCTCACACTC (5mC at 15 29),10100
GAGGCCAAGTCGTAAAAGCCTCCTGGCTTTTACGACTTGGCCTCACACTC,9700
GAGGCCGGGTCGTAAAAGCCTCCTGGCTTTTACGACCCGGCCTCACACTC,11500
GAGGCCAGGTCGTACAAGCCTCCTGGCTTGTACGACCTGGCCTCACACTC,10400

# Set 4
# Target: RNA binding protein fox-1 homolog 2, RRM domain, GST-SBP tag (RBFOX2, Homo sapiens, UniProt O43251-10, residues 100-194)
# Method: RNA Bind-n-Seq
# Molecule type: RNA
# Matrix: in vitro
# Tested at: 365 nM
# Notes: natural RNA segment, single round, ends assumed
# Reference: no-protein control
# Reading: higher = stronger binding
Oligonucleotide,RBNS enrichment (R)
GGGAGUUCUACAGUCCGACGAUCAACCUAAGAAUGGGAGUUACAAAUAGUAAAGAAGCUUUUUUUUUUUUUUUAAUUUAAAGUUUUUUUAUGUAAGUUUUCCCACAUGAUGGGGCCUUGUUUUGCAUGUUGAUUGGAAUUCUCGGGUGCCAA,28.8
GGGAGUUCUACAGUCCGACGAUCGACUUUUUUUAUCUUUAUUUUUAUUUUGGAGAUUGGAUUUUUCUAUGUAGCUAUGGCUGUCCUUGAAUUCUCUCUGUAAACCAGGCUGCCCUUGAACUUGUGAUCCUUCUUGGAAUUCUCGGGUGCCAA,0.543
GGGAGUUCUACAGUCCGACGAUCGUUAGUUCUAGUCCAUAAUGGCCUUUGAGCAGCAAGCUUUCAGAAGAUUAUAUUUGAGGAUUGUAGCAGUUUCUUUGUUUCAGAUUGUCAGCUGACUUAAAAUGUUUGUGUGGAAUUCUCGGGUGCCAA,0.457
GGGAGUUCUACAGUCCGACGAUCCUGUAUUCUCAGCACUCAGGAGACUGCUACAGCAGGAUUGAGAGAUCAGAGGCAGGCUUGUCUUUGUAGAGAAUUACAAGCCUGCUUGAGCUACAGAGUGUGAUCCUGUCUGGAAUUCUCGGGUGCCAA,0.459
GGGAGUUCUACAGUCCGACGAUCAAUACCGUGUUAUCUGCUGUAUUUUCCCUGUGUGUAUAAUGUAUCUCCUUUCAGAACAGGAAUGUGCCUCCUAAUGUUUACUGUUACCCUGCUGUCUCUGUAUGUCCAGUUGGAAUUCUCGGGUGCCAA,2.1
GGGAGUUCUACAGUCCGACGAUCUCUUUGAGGGCAUUUAACUACAGGGGAGCAGUGGACUGAGGCUUGGCUUGAAUUAGACCACAAAGCUGGCUGUAUAUGGGAGAGUCCUUUGUUGCUUCCUUCCCUGGAGAUGGAAUUCUCGGGUGCCAA,0.679
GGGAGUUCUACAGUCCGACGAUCCGUAUAUUUAGAACUGCACUUUGUCCACAACCUUCCCUUCUCUUUCUAUUCCCCAGUGAACUGAGGUUUUUACCGAUUUAUAGAGCAGUCAAAUCCGAAGUGCUCGAGUGUGGAAUUCUCGGGUGCCAA,0.383
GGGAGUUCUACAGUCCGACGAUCGUGCUGCGGCCUGUUCAUAUGCUCUCAUACUUUUUCAAAUCAUGAUGAGAAUUUUUCUCCUAUAUACUAAAUCCUCUUAAAGACUCAACUCUUUGUAGUUUUGUCAAAGAUGGAAUUCUCGGGUGCCAA,0.9
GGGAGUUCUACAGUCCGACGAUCGUUUCUUCUAUUGUAGACACCAAGUCUCCCUGAGAUUCCUGAUGGGGUAUUACCUACCAAGAUAAUGAGAGCUUCUAAGGUUGAGGGGAGCUGAAUAGUUUGCACAAGAAUGGAAUUCUCGGGUGCCAA,1.02
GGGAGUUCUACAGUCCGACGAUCAAUAAUUGUUUUUGACUUUCAUAUGUAAAUUUUUUCUACUGAAAGUGUUUUGCUUUUUAAGAAAAUGAAAUUAUAUAGCAGGAAAGGACUAUCUUUGAACAUAAGUUAAUUGGAAUUCUCGGGUGCCAA,0.488
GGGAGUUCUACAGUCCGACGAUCUUGGGGAUCGAUGUGCUCAGCCAAAUUUCCUGUUUGAAAUAUCAUGUUAAAUUAGAAUGAAUUUAUCUUUACCAAAAACCAUGUUGCGUUCAAAGAGGUGAACAUUAAAAUGGAAUUCUCGGGUGCCAA,1.16
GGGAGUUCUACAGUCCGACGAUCGUGUUGACUGUGUCAUUAGUCCUUUGUCUAAGUAGGGCCAGGGCACCGUAUUCCUCUCCCAGGUGUUUGUGGGGCUGGAAGGACCUGCUCCCACAGGGGCCAUGUCCUCUUGGAAUUCUCGGGUGCCAA,0.385

# For quick reference, copied from above (set 2):
Oligonucleotide,log fluorescence [z-score]
GACGGACTGGGGACAGGGGACGTGCTA,-0.209
TCACATCTGCAAGATCCAACTGTGCTA,0.0329
GACGGTATCGCCTATCGGGACGTGCTA,-0.388
GACGGTATCCTTCTCATGACGTGCTAG,0.236
